Experimental data gathered from unrelated publications.
Lines come from different studies, so protocols differ. Values joined by “and” are separate records of one study, mostly repeats; a detail may differ. ± marks the error that the study gave.

| Compound | target or system | test | test system | conditions | scale | quantity | result |
| --- | --- | --- | --- | --- | --- | --- | --- |
| COc1cc2c3c(n(CCCN4CCOCC4)c(=O)c2cc1OC)-c1cc2c(cc1C3=O)OCO2 | – | – | beagle dog, female, plasma | intravenous infusion, 50 mg/m^2, 1 h infusion, vehicle 1 | – | CL | 46.7 ± 9.9 L/h/m² |
| COc1cc(N2CCC3(CCN(C)CC3)CC2)ccc1Nc1ncc(Cl)c(Nc2ccccc2P(C)(C)=O)n1 | – | population PK model | human | oral, final model without outliers | – | Q/F | 15.8 L/h |
| Cc1ccc(Sc2ccccc2N2CCNCC2)c(C)c1 | – | – | healthy adult men | oral, 2.5 mg single dose, treatment-emergent adverse events | – | vomiting incidence | 0% |
| CNC(=O)c1ccc(-c2cnc3ncc(Cc4ccc5ncccc5c4)n3n2)cc1F | – | CTCAE v4.0, any causality | human hepatocellular carcinoma patients | oral, 600 mg twice daily, expansion cohort at RP2D | – | bilirubin increase incidence (all grades) | 18% |
| O=C(Nc1nc2cccc(-c3ccc(CN4CCS(=O)(=O)CC4)cc3)n2n1)C1CC1 | – | refers to: hypercholesterolaemia | human rheumatoid arthritis patients | oral, 150 mg once daily, 4 weeks, regardless of relatedness | – | treatment-emergent adverse events | 0% |
| O=C(O)CCC(=O)O.[2H]C([2H])([2H])Oc1cc(C)c2[nH]ccc2c1CN1CC[C@@H](C2CC2)C[C@H]1c1ccc(C(=O)O)cc1 | – | multiple ascending dose | healthy Chinese subjects | 300 mg once daily | – | subjects with dental ulcer TEAE | 25% |
| Cc1nc(-c2ccc(OCC(C)C)c(C#N)c2)sc1C(=O)O | – | – | healthy Chinese subjects | oral, 40 mg, fed | – | subjects with monocyte count increased | 5% |
| O=C(O)CCCOc1ccc([18F])cc1-c1cc(-c2ccccc2C(F)(F)F)n(-c2ccccc2)n1 | – | gamma counting | male ddY mice, pancreas | intravenous, 2.1 MBq, 30 min | – | radioactivity uptake | 0.25 ± 0.03 SUV |
| CCC(CC)C(=O)Oc1cccc(C(O)CCN)c1.O=CO (stereo not drawn) | – | scotopic ERG | BALB/cJ mice | intraperitoneal, 10 mg/kg, 2 h dark adaptation, added: 10,000 lx photobleach, 10 min | – | ERG a-wave amplitude | 11 µV and 48 µV and 18 µV and 19 µV and 46 µV and 54 µV |
| CCC1(C)CC(OC(=O)CSc2nnc(N)[nH]2)C2(C)C(C)CCC3(CCC(=O)C32)C(C)C1O (stereo not drawn) | – | – | sheep erythrocytes | 1 h, pH 7.5 | – | maximum haemolysis | 3.07% |
| CNC(=O)c1cc(Oc2ccc(NC(=O)Nc3cc(C(C)(C)C)nn3-c3ccc4ncccc4c3)c(F)c2)ccn1 | – | refers to: worst grade 1 | human | oral, dose not given, cycles 1 and 2, Low AUC(0-4 h) subgroup | – | patients with nervous system disorder AE | 13% |
| C[C@@H](N)C1CCN(S(=O)(=O)c2cccc3cnccc23)CC1 | – | – | healthy volunteers | 250 mg, fasted | – | participants with orthostatic hypotension | 16.7% |
| N#C[C@@]12C[C@@H]1[C@@H](n1cnc3c(N[C@@H](C4CCC4)C4CC4)nc(I)nc31)[C@H](O)[C@@H]2O | – | – | Wistar rat, male, plasma | oral, 3.0 mg/kg | – | Vd | 177 L/kg |
| COc1cccc(-c2n[nH]c(SCc3ccccn3)n2)c1OC | – | – | Sprague-Dawley rat, plasma | oral, 10 mg/kg | reference: female over male | Cmax ratio | 0.46 |
| Cn1c(C(F)(F)F)cc(=O)n(-c2cc(Oc3cccnc3OCC(=O)O)c(Cl)cc2F)c1=O | – | – | beagle dog, male, plasma | oral capsule, 100 mg/kg/day epyrifenacil, week 13, 90-day study | – | Tmax | 5 h |
| Cc1c(Cl)c(C)[n+]([O-])c(Cl)c1-c1noc(-c2cc(O)c(O)c([N+](=O)[O-])c2)n1 | – | refers to: Bloating | healthy Caucasian subjects | oral, 25 mg, 4 days | – | adverse drug reaction incidence | 0% |
| O=[N+]([O-])c1cnc2ccc(F)cc2c1O | – | – | sheep erythrocytes | 1 h, pH 7.5 | – | maximum haemolysis | 3.1% |
| NS(=O)(=O)C#Cc1ccccc1 | Toxoplasma gondii | parasite growth, luciferase reporter | HFF, tachyzoite | 72 h | – | EC50 | 228 µM |
| Cc1cccc(CNC(=O)c2cn(CCNC(=O)c3ccccc3Sc3c([N+](=O)[O-])ncn3C)c3cc4c(cc3c2=O)OCO4)n1 | – | – | human, whole blood | 1 µM, 0.5 h | – | remaining compound | 94.1% |
| N#Cc1ccc2c(c1)[C@H]1CCCN(C(=O)c3ccc4[nH]cnc4c3)[C@H]1C2 | – | – | human females | 10 mg, day 7 | – | total testosterone level | 1 nmol/L |
| FC(F)(F)c1ccc(CNc2ccc(Cc3c[nH]c4ncc(Cl)cc34)cn2)cn1 | – | refers to: Nausea | patients with advanced solid tumours | oral, dose not given, grade 3 and 4, possibly related to drug | – | adverse event incidence | 6% |
| O=C(CCCCCCC(=O)Nc1ccc(CC[18F])cc1)NO | – | – | athymic nu/nu male mice, LNCaP xenograft, brain | intravenous, 1 h | – | tissue uptake | 0.7 ± 0.1 %ID/g |
| C[C@@H](O)CCOC(=O)C[C@@H](C)O | – | refers to: heart rate | human | oral, dose not given, 60 min post-dose vs pre-dose, unit not given | reference: pre-dose | mean change | 4 |
| CC(C)(C(=O)N1CCOc2c(C#N)cncc2C1)C(F)F | – | refers to: ventricular extrasystoles | healthy humans, both sexes | oral, 20 mg single dose | – | subjects with TEAE | 0% |

| Compound | target or system | test | test system | conditions | scale | quantity | result |
| --- | --- | --- | --- | --- | --- | --- | --- |
| CCc1cc(C(=O)NC)c2nccc(N3CCc4c(cc(Cn5ccnc5)cc4-c4cn(C)nc4C(F)(F)F)C3=O)c2c1 | – | – | Sprague Dawley rats | oral, 100 mg/kg once daily, 7 days | reference: vehicle | serum GGT change | -50% |
| Cc1ccc(O)c(-n2nc3ccccc3n2)c1 | – | exposure assessment | human, age 16-21 years | spray sunscreen | – | mean daily dermal uptake | 744 ng/kg body weight/day |
| Oc1ccc(/C=C/c2cc(O)cc(O)c2)cc1 | – | – | rat, azoxymethane-injected, blood at sacrifice | 100 mg/kg | – | calcium | 10.3 mg/dL and 10.2 mg/dL and 10.4 mg/dL |
| CNC(=O)c1ccc(-c2cnc3ncc(Cc4ccc5ncccc5c4)n3n2)cc1F | – | – | Japanese patients | oral, 400 mg, grade 3/4 | – | Constipation dose reduction/interruption | 1% |
| O=C1Cc2cc(CCN3CCN(c4nsc5ccccc45)CC3)c(Cl)cc2N1 | – | – | male Hartley guinea pigs, anaesthetized | intravenous, 1 mg/kg group, baseline before infusion | – | mean blood pressure | 39 ± 0.3 mmHg |
| COc1ccc(C[C@@H](C)[C@@H](C)Cc2ccc(OC)c(OC)c2)cc1OC | – | – | beagle dog male, plasma | oral, 1000 mg/kg/day, day 28, median | – | Tmax | 1 h |
| O=C(O)CNC(=O)c1ncc(-c2ccc(Cl)cc2)cc1O | – | – | – | – | – | pKa (acidic) | 3.3 |
| Cc1ccc(C(=O)N(CCCN)C(c2nc3snc(C)c3c(=O)n2Cc2ccccc2)C(C)C)cc1 (stereo not drawn) | – | pneumonia grade ≥3 (CTCAE) | human patients | intravenous, 2 mg/day | – | patients with adverse event | 17% |
| Cc1cc(Nc2cc3ncccc3c(N[C@@H]3C[C@H]4CC[C@@H](C3)N4CCC#N)n2)n[nH]1 | – | – | healthy human subjects | oral, 300 mg, 14 days, multiple ascending dose | – | pruritus incidence | 17% |
| CC(C)NCC(O)COc1cccc2ccccc12 (stereo not drawn) | – | – | male Hartley guinea pigs, anaesthetized | intravenous, 1 mg/kg over 10 min, after infusion | – | mean blood pressure | 39 ± 0.1 mmHg |
| Cc1cc(C(=O)NC(C)(C)COc2cccc3c2C(N)=NS(=O)(=O)N3)cc(C)n1 | – | LC-MS metabolite profiling | Sprague-Dawley rat, both sexes, plasma | oral, 100 mg/kg of parent drug, 1 (unit not given) | higher = more metabolite | plasma peak area | 1.02e+06 a.u. |
| CO[C@@H]1[C@H](OC(=O)N2CC(CCN3CCOCC3)C2)CC[C@]2(CO2)[C@H]1[C@@]1(C)O[C@@H]1CC=C(C)C | – | – | humans | subcutaneous, 0.6 mg twice weekly for 4 weeks, day 28 | reference: baseline | prothrombin time | 0.12 ± 0.34 s |
| O=C(c1ccc(OCCN2CCCCC2)cc1)c1c(-c2ccc(O)cc2)sc2cc(O)ccc12 | Toxoplasma gondii | parasite growth, luciferase reporter | HFF, tachyzoite | 72 h | – | EC50 | 10 µM |
| CNCCOC12CC3(C)CC(C)(CC(Cn4ncc(-c5ccc(N6CCc7cccc(C(=O)Nc8nc9ccccc9s8)c7C6)nc5C(=O)O)c4C)(C3)C1)C2 | – | – | beagle dog, male, anaesthetised | intravenous bolus, 0.03 mg/kg, 105 min | reference: baseline | QTcV interval change | 9 ms |
| CC(C)n1c(Nc2cccnc2)nc2cnc(Nc3ccc(N4CCN(C)CC4)cc3)nc21 | – | refers to: nodal rhythm | healthy male subjects | oral, 100 mg, study, added: gemfibrozil | – | subjects with adverse event | 0% |
| CCCCc1oc2ccccc2c1C(=O)c1cc(I)c(OCCN(CC)CC)c(I)c1 | – | – | male Hartley guinea pigs, anaesthetized | intravenous, 20 mg/kg over 10 min, after infusion | – | mean blood pressure | 35 ± 0.5 mmHg |
| COc1c(OCCCN2CCOCC2=O)ccc2c3n(c(=NC(=O)c4cnc(N)nc4)nc12)CCN3 | – | – | patients with advanced malignancies, plasma | 0.8 mg/kg copanlisib, median, cycle 1 day 1, added: gemcitabine | – | tlast | 49.3 h |
| CCc1cc(/C(C)=N/OCc2ccc(C3CCCCC3)c(C(F)(F)F)c2)ccc1CN1CC(C(=O)O)C1 | – | – | – | – | – | pKa (basic) | 8.5 |
| Cc1c(-c2ccc(N3CCc4cccc(C(=O)Nc5nc6ccccc6s5)c4C3)nc2C(=O)O)cnn1CC12CC3(C)CC(C)(C1)CC(OCCNCC[C@H](O)CO)(C3)C2 | – | – | beagle dog, male, anaesthetised | intravenous infusion, 0.3 mg/kg/min, 45 min | reference: vehicle | QTcV interval change | 14 ms |
| C[C@@H]1COCCN1c1cc(C2([S@](C)(=N)=O)CC2)nc(-c2cc[nH]c3nccc2-3)n1 | – | – | Japanese advanced solid tumour patients | oral, 160 mg twice daily, any grade | – | Vomiting incidence | 16.7% |
| CC(C)c1nc(N(C)S(C)(=O)=O)nc(-c2ccc(F)cc2)c1/C=C/[C@@H](O)C[C@@H](O)CC(=O)O | – | – | rat, Wistar albino, plasma | oral, 20 mg/kg, 0 h | – | plasma concentration | 0 µg/mL |
| c1cc2nc(c1)CNCc1cccc(n1)CNC2 | – | potentiometry | – | – | – | sum of log protonation constants | 15.6 |
| COc1ccc(-c2c(C)[nH]c3cc(OC)c(Cl)cc3c2=O)cc1 | – | – | PAMPA | pH 7.4 | – | Papp | 970 nm/s |
| Cn1cc(-c2cn3nccc3c(-c3cnn([C@]4(CC#N)C[C@@H](C#N)C4)c3)n2)cn1 | – | – | healthy humans fasted, plasma | 10 mg single dose, geometric mean | – | mean residence time | 7.8 h |

Some of these lines once more:
| Compound | target or system | test | test system | conditions | scale | quantity | result |
| --- | --- | --- | --- | --- | --- | --- | --- |
| CCc1cc(/C(C)=N/OCc2ccc(C3CCCCC3)c(C(F)(F)F)c2)ccc1CN1CC(C(=O)O)C1 | – | – | – | – | – | pKa (basic) | 8.5 |
| CNC(=O)c1ccc(-c2cnc3ncc(Cc4ccc5ncccc5c4)n3n2)cc1F | – | CTCAE v4.0, any causality | human hepatocellular carcinoma patients | oral, 600 mg twice daily, expansion cohort at RP2D | – | bilirubin increase incidence (all grades) | 18% |
| CCCCc1oc2ccccc2c1C(=O)c1cc(I)c(OCCN(CC)CC)c(I)c1 | – | – | male Hartley guinea pigs, anaesthetized | intravenous, 20 mg/kg over 10 min, after infusion | – | mean blood pressure | 35 ± 0.5 mmHg |
| CNC(=O)c1ccc(-c2cnc3ncc(Cc4ccc5ncccc5c4)n3n2)cc1F | – | – | Japanese patients | oral, 400 mg, grade 3/4 | – | Constipation dose reduction/interruption | 1% |
| O=C1Cc2cc(CCN3CCN(c4nsc5ccccc45)CC3)c(Cl)cc2N1 | – | – | male Hartley guinea pigs, anaesthetized | intravenous, 1 mg/kg group, baseline before infusion | – | mean blood pressure | 39 ± 0.3 mmHg |
| C[C@@H](O)CCOC(=O)C[C@@H](C)O | – | refers to: heart rate | human | oral, dose not given, 60 min post-dose vs pre-dose, unit not given | reference: pre-dose | mean change | 4 |
